Results collected from several papers.
Compare with care: the assays were run in different laboratories. ± marks the error that the study gave.

With `COc1cc2ncnc(Oc3cccc(N[11C](=O)Nc4cc(C(C)(C)C(F)(F)F)on4)c3)c2cc1OC` the tumour uptake was 0.69 ± 0.08 %ID/g (dynamic PET; female Balb/c nude mice, A375 xenograft, tumour; intravenous, 60 min).
For `COc1ccc(C)cc1NC(=O)OC1CC2CCCC(C1)N2Cc1ccc(CC[18F])cc1` (centres unmarked), “tumour to tissue ratio” read 3.86 (BALB/c mice, EMT6 tumour; 1 h; baseline: tumour over blood).
`[3H]c1sc(C)nc1C=C(C)C1CC2C(CCCC(C)C(O)C(C)C(=O)C(C)(C)C(O)CC(=O)O1)N2CCO` (centres unmarked) gave a tumour concentration of 250 ± 20 ng/g (CD2F1 mice, M109 tumour (FR−); intravenous, 2.2 nmol/kg, 2 h).
With `CSCC[C@H](NC(=O)CNC(=O)[C@H](CCCCN)NC(=O)[C@H](CC(C)C)NC(=O)[C@@H]1CCCN1C(=O)[C@H](CO)NC(=O)[C@H](Cc1c[nH]cn1)NC(=O)[C@H](Cc1c[nH]c2ccccc12)NC(=O)[C@H](CCCNC(=N)N)NC(=O)[C@H](CC(C)C)NC(=O)[C@H](CCCNC(=N)N)NC(=O)[C@H](Cc1c[nH]c2ccccc12)NC(=O)[C@H](CS)NC(=O)CCCCCNC(=O)CN1CCN(CC(=O)O)CCN(CC(=O)O)CCN(CC(=O)O)CC1)C(=O)O` [copper-64 labelled] the tumour uptake was 4.23 %ID/g (BALB/c nude mice, Huh-7 xenograft, tumour; intravenous, 1.85 MBq, 2 h).
For `C=Cc1c(C)c2cc3nc(c(CC(=O)O)c4[nH]c(cc5nc(cc1[nH]2)C(C)=C5CC)c(C)c4C(=O)O)[C@@H](CCC(=O)NCCCC[C@H](NC(C)=O)C(=O)N[C@@H](Cc1ccccc1)C(=O)N[C@@H](Cc1ccccc1)C(=O)N[C@H](C(=O)N[C@@H](CC(C)C)C(=O)N[C@@H](CCCCN)C(=O)N[C@@H](CO)C(=O)NCC(=O)N[C@@H](CCC(N)=O)C(=O)N[C@@H](Cc1ccc(O)cc1)C(=O)N[C@@H](C)C(=O)N[C@@H](CO)C(=O)N[C@@H](Cc1ccc(O)cc1)C(=O)N[C@@H](Cc1c[nH]cn1)C(=O)N[C@@H](CS)C(=O)N[C@@H](Cc1c[nH]c2ccccc12)C(=O)N[C@@H](CS)C(=O)N[C@@H](Cc1c[nH]c2ccccc12)C(=O)N[C@@H](CCCNC(=N)N)C(=O)N[C@@H](CC(=O)O)C(=O)N1CCC[C@H]1C(=O)NCC(=O)N[C@@H](CCCNC(=N)N)C(=O)N[C@@H](CO)C(=O)NCC(=O)NCC(=O)N[C@@H](CO)C(=O)N[C@@H](CCCCN)C(N)=O)C(C)C)[C@@H]3C`, “tumour fluorescence duration” read 168 h (ex vivo fluorescence imaging; 4T1 tumour-bearing mice; intravenous, 13 mg/kg).
`NC(=O)[C@@H](CCCCNC(=O)CNC(=O)CCC(=O)NCCc1c[nH]cn1)NC(=O)[C@@H](Cc1ccc(O)cc1)NC(=O)[C@@H](CCCCNC(=O)CNC(=O)CCC(=O)NCCc1c[nH]cn1)NC(=O)Cc1ccc(CN2CCN(CC(=O)O)CCN(CC(=O)O)CC2)cc1` [fluorine-18 labelled] has a tumour uptake of 26.5 ± 6 %ID/g (nude mice, tumour-bearing, tumour; intravenous, 3 h, together with: TF2 106 µg i.v. 16 h before).
Under “tumour to muscle ratio”, `CC(C)C[C@@H](NC(=O)[C@@H](CCCNC(=N)N)NC(=O)[C@@H](Cc1c[nH]cn1)NC(=O)[C@@H](Cc1c[nH]c2ccccc12)NC(=O)[C@@H](Cc1c[nH]cn1)NC(=O)[C@@H](Cc1ccccc1)NC(=O)[C@H](NC(=O)[C@@H](Cc1ccc(O)cc1)NC(=O)CNC(=O)CNC(=O)CCOCCOCCOCCNC(=O)CN1CCN(CC(=O)O)CCN(CC(=O)O)CC1)[C@H](C)O)C(=O)N[C@H](CC(N)=O)C(=O)N1CCC[C@@H]1C(=O)O` [gallium-68 labelled] is recorded as 12.9 ± 2.64 (dynamic PET; male C57BL/6 mice, tumour; intravenous, 60 min; baseline: tumour over muscle).
`CCCC[C@H]1C(=O)N(C)[C@@H](CCCC)C(=O)N[C@@H](CCCNC(=O)CN2CCN(CC(=O)O)CCN(CC(=O)O)CCN(CC(=O)O)CC2)C(=O)N[C@H](C(=O)NCC(N)=O)CSCC(=O)N[C@@H](Cc2ccc(O)cc2)C(=O)N(C)[C@@H](C)C(=O)N[C@@H](CC(N)=O)C(=O)N2CCC[C@H]2C(=O)N[C@@H](Cc2c[nH]cn2)C(=O)N[C@@H](CC(C)C)C(=O)N(C)CC(=O)N[C@@H](Cc2c[nH]c3ccccc23)C(=O)N[C@@H](CO)C(=O)N[C@@H](Cc2c[nH]c3ccccc23)C(=O)N1C` [gallium-68 labelled] has a tumour uptake of 3.2 ± 0.4 %ID/g (static PET; NOD/SCID mice, CHO xenograft, CHO tumour, PD-L1-negative; intravenous, 1 h post injection).
